# Published values gathered from unrelated publications.
# Lines come from different studies, so protocols differ.
# Target: Serine/threonine-protein kinase MRCK gamma (CDC42BPG, Homo sapiens, UniProt Q6DT37)
# Chain of UniProt Q6DT37 (whole entry, looked up): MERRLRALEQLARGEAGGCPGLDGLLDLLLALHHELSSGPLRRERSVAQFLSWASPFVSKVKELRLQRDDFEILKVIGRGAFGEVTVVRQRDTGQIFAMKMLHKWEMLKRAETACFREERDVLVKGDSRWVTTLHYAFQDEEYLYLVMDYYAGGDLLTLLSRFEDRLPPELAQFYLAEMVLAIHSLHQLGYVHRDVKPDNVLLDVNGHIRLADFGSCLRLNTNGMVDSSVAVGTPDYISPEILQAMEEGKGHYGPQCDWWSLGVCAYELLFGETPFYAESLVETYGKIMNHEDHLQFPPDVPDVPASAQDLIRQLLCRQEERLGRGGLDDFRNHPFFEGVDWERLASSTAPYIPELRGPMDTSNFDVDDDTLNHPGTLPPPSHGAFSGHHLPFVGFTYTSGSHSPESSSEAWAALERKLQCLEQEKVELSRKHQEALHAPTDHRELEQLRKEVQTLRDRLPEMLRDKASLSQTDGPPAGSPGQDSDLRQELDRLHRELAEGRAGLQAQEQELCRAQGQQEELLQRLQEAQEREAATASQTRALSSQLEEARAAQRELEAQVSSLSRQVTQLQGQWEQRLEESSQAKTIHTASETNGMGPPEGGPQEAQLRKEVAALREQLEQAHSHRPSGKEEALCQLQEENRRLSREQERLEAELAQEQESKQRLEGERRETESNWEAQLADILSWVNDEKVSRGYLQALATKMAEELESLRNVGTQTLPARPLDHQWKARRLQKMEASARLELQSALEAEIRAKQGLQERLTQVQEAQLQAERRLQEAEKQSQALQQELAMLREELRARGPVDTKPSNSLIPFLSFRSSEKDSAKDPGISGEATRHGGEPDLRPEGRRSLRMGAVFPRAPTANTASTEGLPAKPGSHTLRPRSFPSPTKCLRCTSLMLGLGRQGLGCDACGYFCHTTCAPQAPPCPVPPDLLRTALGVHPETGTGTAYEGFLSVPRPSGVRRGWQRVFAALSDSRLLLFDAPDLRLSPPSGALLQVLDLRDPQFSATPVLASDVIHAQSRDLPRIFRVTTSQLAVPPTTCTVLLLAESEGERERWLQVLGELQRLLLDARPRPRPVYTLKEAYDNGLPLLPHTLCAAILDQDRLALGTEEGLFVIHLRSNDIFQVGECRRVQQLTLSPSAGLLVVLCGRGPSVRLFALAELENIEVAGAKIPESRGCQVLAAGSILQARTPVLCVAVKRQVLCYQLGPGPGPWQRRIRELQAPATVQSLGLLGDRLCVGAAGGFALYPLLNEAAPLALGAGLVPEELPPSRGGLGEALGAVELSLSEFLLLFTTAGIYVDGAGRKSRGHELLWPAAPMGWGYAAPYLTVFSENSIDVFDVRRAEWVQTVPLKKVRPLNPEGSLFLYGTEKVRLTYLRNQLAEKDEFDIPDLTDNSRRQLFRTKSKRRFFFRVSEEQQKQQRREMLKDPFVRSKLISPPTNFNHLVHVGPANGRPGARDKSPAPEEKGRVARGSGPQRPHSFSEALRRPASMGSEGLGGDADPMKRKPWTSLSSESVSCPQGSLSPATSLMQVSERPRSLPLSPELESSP
Structure (SMILES),assay,setting,scale,endpoint,result
Cc1cnc(Nc2ccc(C(=O)N3CCC(N4CCCC4)CC3)cc2)nc1-c1cc2ccccc2s1,"binding, KINOMEscan competition binding",1 µM,relative to: DMSO control,remaining binding,49%
CCC1(CC)NC(=O)c2c(c3ccc(Cl)c(Cl)c3n2C)C1C#N (stereo not shown),thermal shift,"10 µM, 2 µM protein",higher = stronger binding,ΔTm,-1 °C
C=CC(=O)N1CCC(C(=O)NCC(=O)N2CCN(c3nc(-c4cnc(N)nc4C(F)F)nc(N4CCOCC4)n3)CC2)CC1,KINOMEscan,1 µM,,remaining binding,100%
CCN1CCN(Cc2ccc(C(=O)Nc3ccc(C)c(Oc4ccc5c(c4)CC(=O)N5)c3)cc2C(F)(F)F)CC1,KINOMEscan,1 µM,,remaining binding,100%
O=C(NCCCN1CCOCC1)c1ccc(Nc2ncc(Cl)c(-c3ccc(Cl)s3)n2)cc1,"binding, KINOMEscan competition binding",1 µM,relative to: DMSO control,remaining binding,87%
Cn1c2c(Cl)c(Cl)ccc2c2cc(N)[nH]c(=O)c21,thermal shift,"10 µM, 2 µM protein",higher = stronger binding,ΔTm,-0.6 °C
O=C(c1ccc(Nc2ncc(Cl)c(-c3cc4ccccc4s3)n2)cc1)N1CCC(N2CCCC2)CC1,"binding, KINOMEscan competition binding",1 µM,relative to: DMSO control,remaining binding,43%
CNC(=O)[C@@H]1CC[C@@H](n2c(-c3ccc4cnccc4c3)nc3ccc(C(=O)NCc4cccc(C(N)=O)c4)cc32)C1,KINOMEscan,1 µM,,remaining binding,100%
Cn1c2c(Cl)c(Cl)ccc2c2cn[nH]c(=O)c21,thermal shift,"10 µM, 2 µM protein",higher = stronger binding,ΔTm,-0.7 °C
Nc1ncc2c(n1)-c1c([nH]c3ccc(C#CC4CC4)cc13)CCCC2,scanMAX,1 µM,,remaining binding,89%
Cn1c2c(c3ccccc31)C(C#N)C(C)(C)NC2=O (stereo not shown),thermal shift,"10 µM, 2 µM protein",higher = stronger binding,ΔTm,-0.6 °C
COc1ncc2cc3ccccc3nc2c1C#N,KINOMEscan,5 µM,relative to: DMSO,remaining binding,97%
O=C(Nc1c[nH]nc1C(=O)NC1CCNCC1)c1cc(F)cc(F)c1,scanMAX,1 µM,relative to: untreated,remaining binding,100%
COc1cnc(Nc2cccc(S(N)(=O)=O)c2)nc1N1CCN(c2ccccc2)CC1,KINOMEscan,1 µM,,remaining binding,100%
C=CC(=O)N1CCC(COCC(=O)N2CCN(c3nc(-c4cnc(N)nc4C(F)F)nc(N4CCOC[C@@H]4C)n3)CC2)CC1,KINOMEscan,1 µM,,remaining binding,100%
C[C@@H](c1ccc(-n2cnc3c(N)ncnc32)cc1)N1CCc2nn(C)c(Cc3ccccc3)c2C1=O,KINOMEscan,0.1 µM,,remaining binding,96%

# Excerpt of the above:
Structure (SMILES),assay,setting,scale,endpoint,result
CCN1CCN(Cc2ccc(C(=O)Nc3ccc(C)c(Oc4ccc5c(c4)CC(=O)N5)c3)cc2C(F)(F)F)CC1,KINOMEscan,1 µM,,remaining binding,100%
